Measured values collected from several papers.
Every numbered part comes from another study and shows a few of its results, in no order. Substitutions count along the parent as printed.

Block 1
Target: Interferon regulatory factor 7, full length, phosphomimetic (IRF7, Homo sapiens, UniProt Q92985, residues 1-503, S471D/S472D/S475D/S476D/S477D/S483D/S484D/S487D)
Method: protein-binding microarray
Molecule type: double-stranded DNA, one strand shown
Matrix: in vitro
Tested at: 2200 nM top
Notes: 60-bp whole probe
With: salmon DNA 0.4 mg/ml
Baseline: random background probes
Reading: higher = stronger binding
All sequences stand within: GCCTAGCAC … GTCTTGATTCGCTTGACGCTGCTG
Construct (chain): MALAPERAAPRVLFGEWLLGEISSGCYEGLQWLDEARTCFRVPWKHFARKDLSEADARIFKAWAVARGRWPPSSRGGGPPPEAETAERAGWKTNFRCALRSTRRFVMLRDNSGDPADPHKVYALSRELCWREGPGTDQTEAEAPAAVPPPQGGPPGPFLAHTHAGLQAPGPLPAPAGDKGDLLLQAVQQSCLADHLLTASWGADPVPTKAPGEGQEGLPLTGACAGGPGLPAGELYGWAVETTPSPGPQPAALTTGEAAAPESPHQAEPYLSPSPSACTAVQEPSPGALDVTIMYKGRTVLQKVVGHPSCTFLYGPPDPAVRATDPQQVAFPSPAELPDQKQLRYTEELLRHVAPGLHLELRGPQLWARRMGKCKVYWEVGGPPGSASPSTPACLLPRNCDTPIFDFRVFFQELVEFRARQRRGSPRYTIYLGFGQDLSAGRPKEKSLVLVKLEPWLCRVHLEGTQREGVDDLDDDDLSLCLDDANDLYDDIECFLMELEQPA
| Oligonucleotide | fitted relative affinity [z-score] |
| --- | --- |
| TTAGGTTTCGATACTGGGTTAGTGCTA | 3.97 |
| TTAGTACTGGGGTTTCGATTAGTGCTA | 2.56 |
| GACGGACTGGACACTGGGGGCGTGCTA | -0.391 |
| TCATTTATGGTTTTTTTACTGTGCTAG | 1.5 |
| GGTTTTTTTTTAATTGAAATGTGCTAG | 0.845 |
| TCAAATATTTACCTCTCACTGTGCTAG | 0.816 |
| TTAAGTATCCTTCTCCTTTAGTGCTAG | 1.3 |
| CTCGGGACAGGCACTCTACGGTGCTAG | -0.992 |

Block 2
Target: Ras GTPase-activating protein-binding protein 1, full length (G3BP1, Homo sapiens, UniProt Q13283)
Chain of UniProt Q13283 (whole entry, looked up): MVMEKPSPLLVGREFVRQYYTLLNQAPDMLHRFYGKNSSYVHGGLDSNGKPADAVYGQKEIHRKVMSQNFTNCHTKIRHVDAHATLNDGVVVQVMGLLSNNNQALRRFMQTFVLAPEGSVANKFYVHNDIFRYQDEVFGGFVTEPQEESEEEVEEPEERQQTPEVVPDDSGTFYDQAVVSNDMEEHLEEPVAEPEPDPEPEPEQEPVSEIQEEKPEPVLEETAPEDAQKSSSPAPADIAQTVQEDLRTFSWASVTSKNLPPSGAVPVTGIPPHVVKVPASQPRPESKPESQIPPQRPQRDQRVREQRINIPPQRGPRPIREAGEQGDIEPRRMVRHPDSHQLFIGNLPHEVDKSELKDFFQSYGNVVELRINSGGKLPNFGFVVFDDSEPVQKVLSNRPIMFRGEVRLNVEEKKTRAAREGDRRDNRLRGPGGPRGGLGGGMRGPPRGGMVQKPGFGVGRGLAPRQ
Method: RNA Bind-n-Seq
Molecule type: RNA
Matrix: in vitro
Tested at: 200 nM
Notes: whole 134-nt RNA, ends assumed
With: 150 mM LiCl
Baseline: input library
Reading: higher = stronger binding
All molecules: 7-deaza-guanosine replaces G
| Oligonucleotide | log2 enrichment |
| --- | --- |
| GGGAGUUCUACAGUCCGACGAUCUGUCUCGAGCAGGGGACAAGACGUUCGAGGAGUACCUGGAUGAGUAUUACCGGCUGGACUACGAGGACAUCAUCGACGACCUGCCCUGUCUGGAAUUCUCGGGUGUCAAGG | -0.388 |
| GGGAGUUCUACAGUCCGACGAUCACCAUGCAGAUGGGCAUCUUUGGGAAGUGGGGCAAGGGGGGGAUAGGGAGGGGGGUAACACUUUGGGAACAGGUGGUCCCAGGUCGUUUCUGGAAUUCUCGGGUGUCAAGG | 0.232 |
| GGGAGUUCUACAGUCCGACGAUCGUCCUGUGCUACACAUCGUAUGUACCGAAUCAAAUUUUUUUAAAUUUUUAAACCCAAAAAAGUAUUAUGUUACGCCGUUCGGAUCUGCACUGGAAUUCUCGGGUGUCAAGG | -0.321 |
| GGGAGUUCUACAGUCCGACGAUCGCAGGAAGUAAAAACAAAUGGAAAUGCUUCGGAUAGUGGCAGGGGUGGGGGUUGCUAAGGAAAGGGUGGGAUUGGAGUGGGUAAAGAGUUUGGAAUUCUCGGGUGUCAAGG | 0.0663 |
| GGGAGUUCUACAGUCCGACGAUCCCUGUGCUACACAUCGUAUGUACCGAAUCGGGUUUUUUUGGGUUUUUUUGGGAAAAAGGGAAAGUAUUAUGUUACGCCGUUCGGAUCUGCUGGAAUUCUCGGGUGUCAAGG | 0.113 |
| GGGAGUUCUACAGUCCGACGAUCCUCAAGUCCUGUGCUACACAUCGUAUGUACCGAAUCGGGGAGGGGAGGGGAGGAAAGUAUUAUGUUACGCCGUUCGGAUCUGCACUUCCAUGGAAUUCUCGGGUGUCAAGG | 0.114 |
| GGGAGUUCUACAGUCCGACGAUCCCUCAAGUCCUGUGCUACACAUCGUAUGUACCGAAUCGGAGGAGGUUUUUGGAAAGUAUUAUGUUACGCCGUUCGGAUCUGCACUUCCAGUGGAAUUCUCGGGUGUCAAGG | -0.012 |
| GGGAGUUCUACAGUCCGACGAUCUAACUUUAGAGGAGAAUCUGAUGGAUAUGGCAGUGGACGUGGAUUUGGGGAUGGCUAUAAUGGGUAUGGAGGAGGACCUGGAGGUGGCAAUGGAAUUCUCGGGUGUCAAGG | -0.108 |

Block 3
Target: tungstate, free oxyanion
Method: microfluidic competitive inhibition
Matrix: in vitro, cell-free expressed
Tested at: not given
Notes: derived from inhibition constants, unchanged parent 2230 nM
Reading: lower = stronger binding
Parent: PafA, mature enzyme, eGFP fusion (Elizabethkingia meningoseptica, UniProt Q9KJX5); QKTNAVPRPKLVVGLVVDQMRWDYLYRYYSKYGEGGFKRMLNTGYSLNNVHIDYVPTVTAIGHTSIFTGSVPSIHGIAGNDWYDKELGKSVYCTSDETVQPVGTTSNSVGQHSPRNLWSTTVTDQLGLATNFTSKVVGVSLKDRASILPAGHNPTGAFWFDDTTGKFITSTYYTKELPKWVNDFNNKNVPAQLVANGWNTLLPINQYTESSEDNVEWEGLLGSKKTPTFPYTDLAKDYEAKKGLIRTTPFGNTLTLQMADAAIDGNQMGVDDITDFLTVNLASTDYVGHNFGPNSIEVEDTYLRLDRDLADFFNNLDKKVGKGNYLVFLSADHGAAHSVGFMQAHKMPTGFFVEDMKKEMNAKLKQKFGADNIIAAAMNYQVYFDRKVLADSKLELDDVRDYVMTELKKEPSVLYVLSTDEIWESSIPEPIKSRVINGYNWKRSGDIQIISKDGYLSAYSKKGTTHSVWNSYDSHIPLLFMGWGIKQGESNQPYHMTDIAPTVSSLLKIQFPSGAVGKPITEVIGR
| Change | oxyanion analog dissociation constant [µM] |
| --- | --- |
| E216G | 1.94 |
| E429V | 1.86 |
| T130V | 2.13 |
| D355V | 2.12 |

Block 4
Target: Sal-like protein 4, full length isoform B (SALL4, Homo sapiens, UniProt Q9UJQ4-2, residues 1-616)
Method: universal PBM
Molecule type: double-stranded DNA, one strand shown
Matrix: in vitro
Tested at: not given
Notes: 8-mer, flanks averaged, mean of replicates
Reading: higher = stronger binding
| Oligonucleotide | E-score |
| --- | --- |
| ATCGCAAG | -0.145 |
| ACGGTAGA | -0.105 |
| CCTACGCC | -0.246 |
| ACTTCTCC | -0.076 |
| ACGCAGGC | -0.141 |
| CATGTCTC | 0.0533 |
| GATTTTCC | -0.0259 |
| ACAATGGC | -0.0861 |

Block 5
Target: CCNB1, cyclin fold, Cln2 fusion (human)
Method: yeast growth competition, sequencing
Matrix: yeast
Notes: strong parent motif
Baseline: not given
Reading: higher = stronger binding
Parent: viral docking peptide; KGVKRKLFAEDSS; partner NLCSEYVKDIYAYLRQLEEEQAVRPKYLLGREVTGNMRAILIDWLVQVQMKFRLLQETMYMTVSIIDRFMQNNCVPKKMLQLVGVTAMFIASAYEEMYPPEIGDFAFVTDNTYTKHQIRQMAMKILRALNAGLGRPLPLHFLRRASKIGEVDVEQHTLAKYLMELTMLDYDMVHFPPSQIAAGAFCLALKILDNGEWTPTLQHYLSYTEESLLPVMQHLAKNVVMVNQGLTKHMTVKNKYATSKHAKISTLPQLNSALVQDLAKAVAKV
| Change | normalised enrichment score |
| --- | --- |
| KGKKRKLFAEDSS [V3K] | 0.463 |
| KAVKRKLFAEDSS [G2A] | 2.07 |
| KGVKRSLFAEDSS [K6S] | 1.2 |
| KGVKAKLFAEDSS [R5A] | 0.536 |
| KGVKRKLFAEDIS [S12I] | 2.62 |
| KGVMRKLFAEDSS [K4M] | 1.5 |
| KGVKRKLFAKDSS [E10K] | 0.364 |
| KGVKMKLFAEDSS [R5M] | 1.16 |
| KGHKRKLFAEDSS [V3H] | 0.451 |
| KGVKRKLGAEDSS [F8G] | 0.368 |
| KGVKRKLFAECSS [D11C] | 1.53 |
| KGVKRKLPAEDSS [F8P] | -0.0519 |
| KGVQRKLFAEDSS [K4Q] | 2.9 |
| KGVKRNLFAEDSS [K6N] | 0.812 |
| KGVKRKLQAEDSS [F8Q] | 0.595 |
| KGVKGKLFAEDSS [R5G] | -0.045 |
| KGVKNKLFAEDSS [R5N] | 0.147 |
| KIVKRKLFAEDSS [G2I] | 1.53 |
| KGVKRKLFAEDKS [S12K] | 1.61 |
| KGVKRKLFAEKSS [D11K] | 1.05 |
| KGVKPKLFAEDSS [R5P] | -0.0608 |
| KHVKRKLFAEDSS [G2H] | 1.71 |
| KGVKRKLFAEMSS [D11M] | 0.874 |
| KGVARKLFAEDSS [K4A] | 3.19 |
| KGVSRKLFAEDSS [K4S] | 2.45 |

Further values, each from its own experiment
Method: cross-linking MS
| Substance | partner | matrix | notes | with | endpoint | result |
| --- | --- | --- | --- | --- | --- | --- |
| GART (Homo sapiens, UniProt P22102) | HNRNPU (Homo sapiens, UniProt Q00839) | – | hits only | – | interaction screen | cross-linked |
| SF3B1 (Homo sapiens, UniProt O75533) | SF3B6 (Homo sapiens, UniProt Q9Y3B4) | cell fractions | – | DMTMM | cross-linked residues | K430 to E65 |
| PFDN5 (Homo sapiens, UniProt Q99471) | BAZ2A (Homo sapiens, UniProt Q9UIF9) | cell fractions | – | DSSO | cross-linked residues | K47 to T682 |
| NPBWR2 (Homo sapiens, UniProt P48146) | ANK3 (Homo sapiens, UniProt Q12955) | cell fractions | – | DMTMM | cross-linked residues | K249 to D2575 |

Excerpt of the above (block 5):
| Change | normalised enrichment score |
| --- | --- |
| KGVMRKLFAEDSS [K4M] | 1.5 |
| KGVSRKLFAEDSS [K4S] | 2.45 |
| KGVKRNLFAEDSS [K6N] | 0.812 |
| KIVKRKLFAEDSS [G2I] | 1.53 |
